{"data": "Measurements from different studies", "note": "Each numbered part is a random draw from the data of one study; scales do not carry over between parts. Substitutions count along the parent as printed."}
{"data": "Block 1", "target": "RNA binding protein fox-1 homolog 2, RRM domain, GST-SBP tag (RBFOX2, Homo sapiens, UniProt O43251-10, residues 100-194)", "method": "RNA Bind-n-Seq", "molecule type": "RNA", "sample": "in vitro", "concentration": "365 nM", "notes": "natural RNA segment, single round, ends assumed", "reference": "no-protein control", "reading": "higher = stronger binding", "Target sequence (chain)": "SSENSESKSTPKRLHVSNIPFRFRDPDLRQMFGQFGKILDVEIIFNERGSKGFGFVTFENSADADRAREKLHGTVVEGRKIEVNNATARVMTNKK"}
{"Strand": "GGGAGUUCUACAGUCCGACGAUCAGGUUGUUCACCUUUUCAUCUGAAAAUGCUUUACUCUGACUAUGUGCUAUUGGGUUUUAUUUCCAGAAAAUAUAGUUCUCCUUUUUUCUGCAUGAAGGAUACAUCGUGGUUGGAAUUCUCGGGUGCCAA", "RBNS enrichment (R)": 1.39}
{"Strand": "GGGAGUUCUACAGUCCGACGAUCCAGCGUCUGAGACUUGAGAACUGAGACACCGUGUUCUUCAGCACGCGUCCUGUAGCUAGAGGCUCGAACCUACCAGCCCGCGACCGCCACCCACCCAGCGGUAUUGGAAGUGGAAUUCUCGGGUGCCAA", "RBNS enrichment (R)": 0.519}
{"Strand": "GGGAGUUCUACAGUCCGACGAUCCACAGCCCAAGGAGGAAAUGAUCACAGCUGGGGUUGAAGGCUUCACCUGCACAUCACUGCACAGACCUGAUUUGUGUCCCAGUGGACUUGUCCAAUGGAUGAAGUUGAUUUGGAAUUCUCGGGUGCCAA", "RBNS enrichment (R)": 0.377}
{"Strand": "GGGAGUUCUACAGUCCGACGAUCCAAGUAAUUUCCUGAGCUAAAUGCUUCAUUGAAAGCUUCAAAGUUUAUAUGCCUGGUGCACAGUGCUUAGAAGUAAGCAAUUCCCAGGUCAUAGCUCAAGAAUUGUUAGCUGGAAUUCUCGGGUGCCAA", "RBNS enrichment (R)": 0.264}
{"Strand": "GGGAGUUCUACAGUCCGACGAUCAAACCACAAUUCAGGACCAAAUUUUUUCUCCGUGUGUGUUUAUUCCUUAUAGGUGUAAUUGAGAAGACCCGUUUAUUUUUACCCCCUCACGGACUCUCCAUCUUUGUAUUUGGAAUUCUCGGGUGCCAA", "RBNS enrichment (R)": 0.574}
{"Strand": "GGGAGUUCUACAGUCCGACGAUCACUCCGAUGGCCAGCAACAACACCGCCAGCAUAGCACAAGCCAGGAAGCUGGUAGAGCAGCUUAAGAUGGAAGCCAAUAUCGACAGGAUAAAGGUGUCCAAGGCAGCUGCUGGAAUUCUCGGGUGCCAA", "RBNS enrichment (R)": 0.198}
{"Strand": "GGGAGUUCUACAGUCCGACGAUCCUCAAGUAGAAAUUGCCCAAUUUUUACCAGCUGGAGGGACACCCUUGGGUUUUUGUACGAAGCUAUUUAAUGAGCCUGUGUCUUGGGGACUCAGCAGGCUGGAGCUUGGGUGGAAUUCUCGGGUGCCAA", "RBNS enrichment (R)": 1.16}
{"data": "Block 2", "target": "CCNE2, cyclin fold, Cln2 fusion (human)", "method": "yeast growth competition, sequencing", "sample": "yeast", "notes": "strong parent motif", "reference": "not given", "reading": "higher = stronger binding", "starting sequence": "BRCA2 docking peptide (human); PSIKRNLLNEFDR"}
{"Variant": "PSIGRNLLNEFDR [K4G]", "normalised enrichment score": -0.374}
{"Variant": "PSIKRNMLNEFDR [L7M]", "normalised enrichment score": 0.315}
{"Variant": "DSIKRNLLNEFDR [P1D]", "normalised enrichment score": 1.59}
{"Variant": "PSIKRNLLMEFDR [N9M]", "normalised enrichment score": 2}
{"data": "Block 3", "target": "Ras GTPase-activating protein-binding protein 1, full length (G3BP1, Homo sapiens, UniProt Q13283)", "method": "RNA Bind-n-Seq", "molecule type": "RNA", "sample": "in vitro", "concentration": "200 nM", "notes": "whole 134-nt RNA, ends assumed", "together with": "150 mM LiCl", "reference": "input library", "reading": "higher = stronger binding", "library": "7-deaza-guanosine replaces G", "UniProt Q13283, sequence (whole entry, looked up)": "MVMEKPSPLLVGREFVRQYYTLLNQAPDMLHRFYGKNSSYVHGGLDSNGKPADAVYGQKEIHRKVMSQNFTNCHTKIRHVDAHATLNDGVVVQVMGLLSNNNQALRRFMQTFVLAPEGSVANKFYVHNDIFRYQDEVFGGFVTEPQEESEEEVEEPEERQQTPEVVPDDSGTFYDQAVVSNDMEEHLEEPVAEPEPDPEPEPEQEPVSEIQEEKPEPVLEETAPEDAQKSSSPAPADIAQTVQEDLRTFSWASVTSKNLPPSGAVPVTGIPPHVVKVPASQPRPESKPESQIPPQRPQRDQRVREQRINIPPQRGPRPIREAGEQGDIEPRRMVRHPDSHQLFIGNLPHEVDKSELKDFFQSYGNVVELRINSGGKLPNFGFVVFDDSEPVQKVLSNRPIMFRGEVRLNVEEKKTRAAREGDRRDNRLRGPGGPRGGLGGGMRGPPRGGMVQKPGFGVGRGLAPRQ"}
{"Strand": "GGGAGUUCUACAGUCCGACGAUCUCAUUUUUUUCCCUGCCGGAAUUUUAGCAUUGAUAUGAACCAUGGACAAGUAUAUUCUGCUGCCACAAAGACUGUAAAGUGCUUCAUUUCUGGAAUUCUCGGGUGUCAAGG", "log2 enrichment": 1.41}
{"Strand": "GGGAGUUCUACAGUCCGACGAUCCUCAAGUCCUGUGCUACACAUCGUAUGUACCGAAUCGGAAAGGUGGUUUUUGGAAAGUAUUAUGUUACGCCGUUCGGAUCUGCACUUCCAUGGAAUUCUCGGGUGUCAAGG", "log2 enrichment": 0.146}
{"Strand": "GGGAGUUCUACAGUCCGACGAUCGCAGGAAGUAAAAACAAAUGGAAAUGCUUCGGAUAGUGGCAGGGGUGGGAGUUGCUAAGGAAAGGGUGGGAUGGGAGUGGGUAAAGAGUUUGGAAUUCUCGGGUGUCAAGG", "log2 enrichment": 0.17}
{"Strand": "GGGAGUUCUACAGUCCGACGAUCCUGUGCUACACAUCGUAUGUACCGAAUCGGUUUUUUUGGGGUUUUUUUGGUUUUUUUGGGGAAAGUAUUAUGUUACGCCGUUCGGAUCUGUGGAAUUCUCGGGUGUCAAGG", "log2 enrichment": 1.08}
{"Strand": "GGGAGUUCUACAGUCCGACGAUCCACAGACAACACGCACCCACACAGACACAGAGGGAAGGGGUUGGGAUGGGGACAGGGUGCACAGCAGGGCGGGGUAGGACCCAAGCCCCUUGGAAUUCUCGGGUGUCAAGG", "log2 enrichment": -0.816}
{"data": "Other studies, line by line"}
{"Molecule": "PhoQ, residues 284 288 289 292 302 303 TVTVVA", "target": "PhoP, residues 12 14 15 18 19 SMASL (Escherichia coli, UniProt P23836)", "test": "Sort-seq, measured: YFP reporter", "system": "E. coli", "conditions": "PhoQ-PhoP variant library, together with: 10 µM Mg2+", "how to read": "reference: high Mg2+ state, higher = stronger signaling", "quantity": "fold induction", "result": 9.5}
{"note": "Excerpt of the above (block 1):"}
{"Strand": "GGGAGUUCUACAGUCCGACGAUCAAACCACAAUUCAGGACCAAAUUUUUUCUCCGUGUGUGUUUAUUCCUUAUAGGUGUAAUUGAGAAGACCCGUUUAUUUUUACCCCCUCACGGACUCUCCAUCUUUGUAUUUGGAAUUCUCGGGUGCCAA", "RBNS enrichment (R)": 0.574}
